# Measured values of several laboratories.
# Numbered parts are unrelated; each lists some results of a single study. Substitutions count along the parent as printed.

# Sample 1 — technique: competition protein-binding microarray; form: double-stranded DNA, one strand shown; medium: in vitro; tested at: 2 µM; together with: Cbf1 competitor, 0.05 µM; direction: higher = stronger binding; all sequences stand within: … GTCTTGATTCGCTTGACGCTGCTG
# Target: Phosphate system positive regulatory protein PHO4, full length, GST-tagged (PHO4, Saccharomyces cerevisiae, UniProt P07270, residues 1-312)
# Notes: whole 60-bp probe, lowest competitor level
# Residues (chain): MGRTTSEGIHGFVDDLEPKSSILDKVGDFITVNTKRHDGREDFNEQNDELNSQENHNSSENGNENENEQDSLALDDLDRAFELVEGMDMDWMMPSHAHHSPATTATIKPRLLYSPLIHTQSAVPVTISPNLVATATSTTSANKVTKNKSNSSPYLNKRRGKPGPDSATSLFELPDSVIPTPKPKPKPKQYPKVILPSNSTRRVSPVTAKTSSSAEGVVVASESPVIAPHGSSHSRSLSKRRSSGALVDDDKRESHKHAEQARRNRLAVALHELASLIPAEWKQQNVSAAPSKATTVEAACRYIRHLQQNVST
Sequence,fluorescence intensity
CATACCCAACCTTGTGAAGTGGGTGAAGATATTTGT,4050 a.u.
TCATCACCAGAAAGTGACATGACAAGAGATTCTGGT,4110 a.u.
GTCTTGTCTCATTGAAGAGTGGGTGTCCCCACTTCA,3810 a.u.
GAGTAACATTACCATCACGCTAGTACTGCTAGATTA,5480 a.u.
CCAGAACGCCCAGAAAACGTGAAGGACACTACATAC,8890 a.u.
CATACCCAACCTTTTCACGTGGAGTAAGATATTTGT,15400 a.u.
CCCTTCCAAAACTATCACATGTAACCATGATGAACC,8610 a.u.
CGGGGTTAAGTTTGGCCTGTGGGTGGCTTGCAGCAG,4610 a.u.
CGTCCTAGTGATTGGTTAGTGGGTGCCATGAGGAAG,6380 a.u.
GTCGGTTTCATCTTCTCCGTGATGGCTTTGCATCTA,3970 a.u.
GTACTGGCTGAGCCGGTCGTGCCGAAAATGAAAATA,7540 a.u.
CCTCGTCTGCTCTTCCACGTTCAGATGTTCCCTTGA,8820 a.u.

# Sample 2 — technique: DHFR PCA, deep sequencing; medium: yeast; together with: (+)-ABA 0.11 µM; reference: wild-type fitted maximum; direction: higher = stronger binding
# Target: ABI1, truncated, D143A, DHFR fusion (Arabidopsis thaliana)
# Notes: methotrexate growth selection, single substitutions
# Starting sequence: PYL1, truncated, DHFR fusion (Arabidopsis thaliana); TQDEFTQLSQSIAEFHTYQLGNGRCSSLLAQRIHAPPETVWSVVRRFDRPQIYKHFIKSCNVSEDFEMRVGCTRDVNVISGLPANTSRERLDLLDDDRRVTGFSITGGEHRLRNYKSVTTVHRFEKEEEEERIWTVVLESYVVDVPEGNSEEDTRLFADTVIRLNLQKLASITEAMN; partner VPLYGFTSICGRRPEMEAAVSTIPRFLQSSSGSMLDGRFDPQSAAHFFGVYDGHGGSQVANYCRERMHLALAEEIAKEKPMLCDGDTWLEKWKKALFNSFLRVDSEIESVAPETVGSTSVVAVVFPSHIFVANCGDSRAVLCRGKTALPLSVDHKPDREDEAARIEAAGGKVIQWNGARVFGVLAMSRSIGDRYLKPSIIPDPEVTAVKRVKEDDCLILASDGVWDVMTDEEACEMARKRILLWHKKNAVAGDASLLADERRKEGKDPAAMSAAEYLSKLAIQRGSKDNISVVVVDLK
Change,relative binding score
V161L,62.8%
Y53Q,-7.37%
V100F,2.49%
K168R,29.7%
G108I,7.74%
K116R,43.2%
Q10G,38.2%
R69K,61.1%
G23V,0.71%
H110Q,31.4%
T86S,31%
G107N,8.46%
Q51R,7.92%
V43Y,-2.58%
P36A,15.7%
F157C,7.16%
W134R,9.72%
V100T,-7.6%
K54E,-3.92%

# Sample 3 — target: CCNE1, cyclin fold, Cln2 fusion (human); technique: yeast growth competition, sequencing; medium: yeast; notes: strong parent motif; reference: not given; direction: higher = stronger binding
# Starting sequence: RBL2 docking peptide (human); STTRRRLFVENDS; partner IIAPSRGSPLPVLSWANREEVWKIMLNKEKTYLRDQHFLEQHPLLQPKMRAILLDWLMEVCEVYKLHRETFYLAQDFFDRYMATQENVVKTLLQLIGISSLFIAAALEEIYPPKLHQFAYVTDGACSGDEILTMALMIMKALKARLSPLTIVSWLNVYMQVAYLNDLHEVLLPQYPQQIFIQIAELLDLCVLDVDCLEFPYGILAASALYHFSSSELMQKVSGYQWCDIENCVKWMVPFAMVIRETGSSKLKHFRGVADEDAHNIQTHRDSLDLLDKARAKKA
Change,normalised enrichment score
SFTRRRLFVENDS [T2F],5.36
SSTRRRLFVENDS [T2S],5.56
STTRRRRFVENDS [L7R],0.74
STTRRRLAVENDS [F8A],-0.115
STTRRRLFVCNDS [E10C],3.23
STTRRRLFVANDS [E10A],3.21
STTGRRLFVENDS [R4G],0.134
STTRSRLFVENDS [R5S],0.521
STTRRRDFVENDS [L7D],-0.121
STHRRRLFVENDS [T3H],5.7
STTRIRLFVENDS [R5I],-0.00836
STTRRRLFVENNS [D12N],4.14
STTRRRLFVQNDS [E10Q],3.39

# Sample 4 — technique: yeast two-hybrid; medium: yeast; notes: mostly zero background; reference: not given; direction: higher = stronger interaction
# Sequence: KEQLEKHNDICAICYQDMKSAVITPCSHFFHAGCLKKWLYVQETCPLCHCHLKNSSQLP (RNF145 RING domain (UniProt Q96MT1))
target,lacZ reporter activity
UBE2S UBC core domain (UniProt Q16763),0
UBE2M UBC core domain (UniProt P61081),0
UBE2B UBC core domain (UniProt P63146),0
UBE2C UBC core domain (UniProt O00762),0
UBE2R2 UBC core domain (UniProt Q712K3),0
UBE2D1 UBC core domain (UniProt P51668),0
UBE2T UBC core domain (UniProt Q9NPD8),0

# Sample 5 — technique: RNA Bind-n-Seq; form: RNA; medium: in vitro; tested at: 365 nM; reference: no-protein control; direction: higher = stronger binding
# Target: RNA binding protein fox-1 homolog 2, RRM domain, GST-SBP tag (RBFOX2, Homo sapiens, UniProt O43251-10, residues 100-194)
# Notes: natural RNA segment, single round, ends assumed
# All sequences stand within: GGGAGUUCUACAGUCCGACGAUC … UGGAAUUCUCGGGUGCCAA
# Construct (chain): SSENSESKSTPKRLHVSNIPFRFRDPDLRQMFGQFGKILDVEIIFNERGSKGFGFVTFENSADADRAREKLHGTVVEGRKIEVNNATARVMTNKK
Sequence,RBNS enrichment (R)
UUCUGGUUAGCUCAGCCCCAGCCCAGCCCAGCUGCUCUGCCCAGAGCUGGGUGAGUGGGGAGACACCUCAGAGCCCCGCAAAACCCACUGACCGGAGGCAAAAGGCAGUG,0.908
CUCCCCUUGUUCUUGGGGGGAAAGGAAGGAGACUUCUGCUGUUGCAGUGAGCCCAGAGUGGAUUGGCAUUAAACUGGCUGCUUUGACACACCUCAUCUCACCCAAGAGUA,0.315
UCUUAAACACUUCCCACUGCCAGAGUGAGAGUGGGAGUCAUGGCCUCCUGAAAACUUGGACUCUGCAUGGUGCCACCACCAACCAUUGAGUAGUCUGAGGUGCUAACAUC,0.452
AUCUUGCUUUUCAGAAAUUACCGAAUGUGUAUAAACAAAUAAAGAAAAAUAAUUUAGCUGUGUUUUAGACAGCAUUAGAAUAUAUUGUUCAGCACAGUAAAAUAUAUUUG,0.617
ACAUACUGACCAGACGUCAGUCUGUGAUGUUUCCGCUGCAAGAAUUCAAGCAUGCUGUUAGGAAUGUAAUUUCAAUGGGAAGUAAACCACUAUUAGGUUUUUUUUCUUUU,14.5
UCCCUCCUAACAGCACGGAUUCUCUUGGGGCUCUUCUUCAGGGAAGAGUAGGGACGCCGUUCCAGCCCCCCUUCCUAUCGUGUCCUUGGGUUCGGGUCACUGCGGCGACG,0.338
UUGUUUUUACUAGGUAGACUGGCAUCUGGGUAGAGGCUGCCUGGGAUUUUUAUCCCCACAUAACCAGGGGCCAUCUGAAAGUCAUUUUCUAGCCAGAUCAGCCACUGAGC,0.429
CCGGUGCCCUGCGCGGGGCCUCCCCAGGACACACUGACGUAGAUUUGCUGUGUAGUCUUGGUGUGGAAAUUUGAAUUCUGCUUUUCUCUACUAAUCUGAAGUGCUCCGUG,0.409
